Assay results gathered from unrelated publications.
Protocols differ between the studies behind these lines.

`C=CC(=O)NC1CCN(c2ncc3ncnc(Nc4ccc(Oc5ccc6c(c5)ncn6C)c(C)c4)c3n2)CC1`: “patients with Fatigue” 6% (male patients; oral, dose not given, on-treatment adverse events).
For `CNC(=O)c1cc(Oc2ccc(NC(=O)Nc3cc(C(C)(C)C)nn3-c3ccc4ncccc4c3)c(F)c2)ccn1`, “patients with grade 1 musculoskeletal disorders” read 24% (patients; oral, dose not given, cycles 1 and 2, Low Cmax subgroup).
Under “patients with adverse event”, `COc1cc(Nc2ncc3c(n2)-c2ccc(Cl)cc2C(c2c(F)cccc2OC)=NC3)ccc1C(=O)O` is recorded as 4% (item: Sepsis, all grades; cancer patients, phase 1/2; oral, dose not given, together with: pembrolizumab).
For `C=CC(=O)Nc1cc(Nc2nccc(-c3cn(C)c4ccccc34)n2)c(OC)cc1N(C)CCN(C)C`, “patients with adverse events” read 3% (item: treatment-related grade ≥3 Fatigue; EGFR-mutant MET-altered NSCLC; oral, dose not given, all).
`O=C(Nc1nc2cccc(-c3ccc(CN4CCS(=O)(=O)CC4)cc3)n2n1)C1CC1`: “patients with gastritis” 0% (rheumatoid arthritis patients; oral, 200 mg once daily, 4 weeks, regardless of relatedness).
Under “patients with adverse event”, `Cc1cc(NC2CCN(C(=O)OC3CCN(C(=O)/C=C/CN(C)C)C3)CC2)n2ncc(C(C)C)c2n1` (stereo not drawn) is recorded as 0% (Phase I dose escalation CTCAE v4.0, item: Dyspepsia; patients with advanced solid tumours; dose not given, TIW dosing any grade).
For `C[C@@H](Nc1cc(F)cc(F)c1)c1cc(C(=O)N(C)C)cc2c(=O)cc(N3CCOCC3)oc12`, “patients discontinuing for AE” read 0% (CTCAE v4, item: AST increased; patients with advanced solid tumours; oral, dose not given, phase I dose expansion).
`CNC(=O)c1ccc(-c2cnc3ncc(Cc4ccc5ncccc5c4)n3n2)cc1F` — result for “patients with adverse event”: 42% (item: Nausea, all grades; cancer patients; oral, 600 mg twice daily, expansion cohort, any causality).
With `CCOc1c([C@H](C)n2nc(C)c3c(N)ncnc32)cc(Cl)c(F)c1[C@@H]1CNC(=O)C1` the patients was 7.1% (item: QRS >100 to ≤110 ms; previously treated B-cell malignancy; oral, 20 mg once daily, baseline below thresholds).

A few entries again:
`CNC(=O)c1ccc(-c2cnc3ncc(Cc4ccc5ncccc5c4)n3n2)cc1F` — result for “patients with adverse event”: 42% (item: Nausea, all grades; cancer patients; oral, 600 mg twice daily, expansion cohort, any causality).
